Results of several laboratories.
Lines come from different studies, so protocols differ. Numbers after ± are the reported error.

With CCNC(=O)c1noc(-c2cc(C(C)C)c(O)cc2O)c1NC(=O)CCN1CCOCC1 the complete response was 22% (nude mice, MV4-11 xenograft; intraperitoneal, 200 mg/kg, every 2 days for 2 weeks).
The relative potency of CCCC[C@H](NC(=O)[C@@H](NC(=O)[C@H](CC(=O)O)NC(=O)[C@H](CCC(N)=O)NC(=O)[C@H](CC(C)C)NC(=O)[C@H](CC(C)C)NC(=O)[C@H](CCCN)NC(=O)[C@H](CCCNC(=N)N)NC(=O)[C@H](C)NC(=O)[C@H](CO)NC(=O)[C@H](CC(C)C)NC(=O)[C@H](CCC(N)=O)NC(=O)[C@H](CC)NC(=O)[C@H](CC(C)C)NC(=O)[C@@H](NC(=O)[C@H](CCCN)NC(=O)[C@H](CCCNC(=N)N)NC(=O)[C@H](Cc1ccc(O)cc1)NC(=O)[C@H](CO)NC(=O)[C@H](CC(N)=O)NC(=O)[C@@H](NC(=O)[C@H](Cc1ccccc1)NC(=O)[C@@H](NC(=O)[C@H](C)NC(=O)[C@H](CC(=O)O)NC(=O)[C@@H](CC)NC(=O)CCc1ccc(O)cc1)[C@@H](C)CC)[C@@H](C)O)C(C)C)[C@@H](C)CC)C(=O)N[C@@H](CO)C(=O)N[C@@H](CCCNC(=N)N)C(=O)NCCCC(N)=O is reported as 114 (GH release; male rat, serum; subcutaneous, dose not given, 30 min; relative to: GHRH(1-29)NH2).
O=[N+]([O-])c1cc(Br)cc([N+](=O)[O-])c1NS(=O)(=O)c1ccc(Br)cc1 gave a germination rate of greater than 70% (Arabidopsis thaliana Col-0 seeds; 1 µM, with: ABA 1 µM).
CCCC[C@H](NC(=O)[C@@H](NC(=O)[C@H](CC(=O)O)NC(=O)[C@H](CCC(N)=O)NC(=O)[C@H](CC(C)C)NC(=O)[C@H](CC(C)C)NC(=O)[C@H](CCCN)NC(=O)[C@H](CCCNC(=N)N)NC(=O)[C@H](C)NC(=O)[C@H](CO)NC(=O)[C@H](CC(C)C)NC(=O)[C@H](CCC(N)=O)NC(=O)[C@H](CC)NC(=O)[C@H](CC(C)C)NC(=O)[C@@H](NC(=O)[C@H](CCCN)NC(=O)[C@H](CCCNC(=N)N)NC(=O)[C@H](Cc1ccc(O)cc1)NC(=O)[C@H](CO)NC(=O)[C@@H](NC(=O)[C@@H](NC(=O)[C@H](Cc1ccccc1)NC(=O)[C@@H](NC(=O)[C@H](C)NC(=O)[C@H](CC(=O)O)NC(=O)[C@@H](C)NC(=O)[C@H](Cc1ccc(O)cc1)NC)[C@@H](C)CC)[C@@H](C)O)[C@@H](C)O)C(C)C)[C@@H](C)CC)C(=O)N[C@@H](CC(=O)O)C(=O)N[C@@H](CCCNC(=N)N)C(=O)NC has a relative potency of 363 (GH release; male rat, serum; subcutaneous, dose not given, 30 min; relative to: GHRH(1-29)NH2).
CC(C)[C@H](CO)Nc1nc(Nc2ccc(C(=O)NCCNS(=O)(=O)c3cccc4c(N(C)C)cccc34)c(Cl)c2)c2ncn(C(C)C)c2n1 gave a PCNA-positive cells of 38.3 ± 12.4% (ND2-SmoA1 mice, medulloblastoma tumour; dose not given).
C[C@H](CCC(=O)O)[C@H]1CC[C@H]2[C@@H]3CC[C@@H]4C[C@H](OS(=O)(=O)O)CC[C@]4(C)[C@H]3CC[C@]12C — result for amylase release: “decreased” (pancreatic acinar cells, Gpr39 knock-out, mouse; 500 µM, with: caerulein 1 nM; relative to: wild type).
CC1(CN)CCN(c2cnc(Sc3cccc(Cl)c3Cl)c(N)n2)CC1: “inflammatory cell infiltration” “decreased” (HE staining; imiquimod psoriasis mice, skin; dose not given).
Under “concentration doubling prothrombin time”, CC(=N)N(C)c1ccc(C(=O)Nc2ccc(F)cc2C(=O)Nc2ccc(Cl)cn2)cc1 is recorded as 1.5 ± 0.3 µM (human plasma).
O=C1/C(=C/c2ccccc2)Oc2cc(O)c3c(oc4cc(O)c(O)cc43)c21 gave an EC50 of 2780 µM (ABTS scavenging, absorbance).
Under “black tail occurrence”, CCCCC1NC(=O)c2ccccc21 (racemic) is recorded as 50% (thrombosis; mouse, carrageenan-induced thrombosis; oral, 50 mg/kg daily for 2 days, 48 h after carrageenan).

A few entries again:
CCCC[C@H](NC(=O)[C@@H](NC(=O)[C@H](CC(=O)O)NC(=O)[C@H](CCC(N)=O)NC(=O)[C@H](CC(C)C)NC(=O)[C@H](CC(C)C)NC(=O)[C@H](CCCN)NC(=O)[C@H](CCCNC(=N)N)NC(=O)[C@H](C)NC(=O)[C@H](CO)NC(=O)[C@H](CC(C)C)NC(=O)[C@H](CCC(N)=O)NC(=O)[C@H](CC)NC(=O)[C@H](CC(C)C)NC(=O)[C@@H](NC(=O)[C@H](CCCN)NC(=O)[C@H](CCCNC(=N)N)NC(=O)[C@H](Cc1ccc(O)cc1)NC(=O)[C@H](CO)NC(=O)[C@@H](NC(=O)[C@@H](NC(=O)[C@H](Cc1ccccc1)NC(=O)[C@@H](NC(=O)[C@H](C)NC(=O)[C@H](CC(=O)O)NC(=O)[C@@H](C)NC(=O)[C@H](Cc1ccc(O)cc1)NC)[C@@H](C)CC)[C@@H](C)O)[C@@H](C)O)C(C)C)[C@@H](C)CC)C(=O)N[C@@H](CC(=O)O)C(=O)N[C@@H](CCCNC(=N)N)C(=O)NC has a relative potency of 363 (GH release; male rat, serum; subcutaneous, dose not given, 30 min; relative to: GHRH(1-29)NH2).
